Measured values from different studies.
Each line is one published result; not all experiments were run side by side. Numbers after ± are the reported error.

CN(CCCNC(=O)c1cccc(C(=O)O)c1)CCCNC(=O)c1cc(NC(=O)c2cc(NC(=O)c3cc(NC(=O)c4cc(NC(=O)[C@H](N)CCNC(=O)c5cc(NC(=O)c6cc(NC(=O)c7nc(NC(=O)c8nccn8C)cn7C)cn6C)cn5C)cn4C)cn3C)cn2C)cn1C
Cmax (C57BL/6 mouse, plasma; intraperitoneal, 120 nmol/animal): 14.8 µM

Cc1ccc(CNC(=O)Cc2ccc(-c3ccc(OCCN4CCOCC4)cc3)cn2)cc1
Cmax (ICR mouse; oral, 10 mg/kg): 1540 ± 330 ng/mL

CCCCCCCCCCCCCCCC(=O)NCCOCCOCCOCCOCCOCCOCCOCCOCCC(=O)NCCCC[C@H](NC(=O)CNC(=O)[C@@H]1CSSC[C@H](N)C(=O)N[C@@H](Cc2ccc(O)cc2)C(=O)N[C@@H]([C@@H](C)CC)C(=O)N[C@@H](CCC(N)=O)C(=O)N[C@@H](CC(N)=O)C(=O)N1)C(=O)NCC(N)=O
Cmax (male C57BL/6J mouse, plasma; subcutaneous, 20 mg/kg, depot formulation): 0.552 µM

COc1ccc(NC(=O)N2CCCN3CCC(c4ccc(C#Cc5ccccc5)cc4)C3C2)cc1 (stereo not drawn)
Cmax (CD-1 mouse, brain; oral, 10 mg/kg, single dose): 3040 ng/g

COc1cc(C(=O)OCCCN2CCCN(CCCOC(=O)c3cc(OC)c(OC)c(OCc4ccc([N+](=O)[O-])cc4)c3)CC2)cc(OC)c1OC
Cmax (male CD-1 mouse, plasma; subcutaneous, dose not given): 164 ng/mL

O=c1[nH]c2ccccc2n1CCCCCN1CCN(c2ccc(F)cc2)CC1
Cmax (C57BL/6 mouse, brain; subcutaneous, 5 mg/kg): 400 ± 800 ng/mL

COc1ccc(NC(=O)N2CCCCN3[C@H](CN(C)C)[C@H](c4ccc(C#Cc5ccccc5)cc4)[C@@H]3C2)cc1
Cmax (CD-1 mouse, brain; oral, 10 mg/kg, single dose): 1790 ng/g

Clc1ccc2ccc3[n+](c2c1)[Ir-3]12([c]4ccccc4-3)([c]3ccccc3-c3ccc4ccc(Cl)cc4[n+]31)[n+]1ccccc1-c1cccc[n+]12.F[P-](F)(F)(F)(F)F
Cmax (ICP-MS, measured: iridium; mouse, serum; intraperitoneal, 2.0 mg/kg): 27 ng/mL

N#CC1(c2ccc3c(N)ncnn23)OC(COP(=O)(O)O)C(O)C1O (stereo not drawn)
Cmax (LC-MS/MS; CD-1 mouse, lung; oral, 100 mg/kg of remdesivir): 937 nmol/kg

COC(=O)C1=CNC=C(C(=O)OC)C1c1ccc(F)c(C(F)(F)F)c1
Cmax (male mouse, brain; intraperitoneal, 25 mg/kg): 29 µM

NC(=O)c1ccc(C(=O)NOCc2ccc(Sc3cccc(Cl)c3)c(C(F)(F)F)c2)cc1
Cmax (male ICR mouse, plasma; oral, 60 mg/kg): 11000 ng/mL

COC(=O)C1OC(Oc2c(-c3ccccc3)oc3cc(O)c(O)c(O)c3c2=O)C(O)C(O)C1O (stereo not drawn)
Cmax (BALB/c mouse, plasma; oral, 10 mg/kg): 11.7 ng/mL

Clc1ccc(C(c2c[nH]c3ccccc23)c2c[nH]c3ccccc23)cc1
Cmax (mouse C57BL/6 male, plasma; oral, 25 mg/kg): 1120 ± 405 ng/mL

C=CC(=O)Nc1cccc(-c2cnc3[nH]cc(C(=O)NC(C)(C)C)c3n2)c1
Cmax (mouse NOD/SCID female, plasma; ip, 50 mg/kg): 10000 ng/mL

N=C(N)NCCC[C@@H]1NC(=O)[C@H](Cc2c[nH]c3ccccc23)NC(=O)[C@@H](CC2CCCCC2)NC(=O)[C@@H]2CCCN2C(=O)[C@@H](NC(=O)CCc2ccccc2)CCCNC1=O
Cmax (C57BL/6J mouse, plasma; intravenous, 1 mg/kg single dose): 34600 ng/mL

For quick reference, copied from above:
Cc1ccc(CNC(=O)Cc2ccc(-c3ccc(OCCN4CCOCC4)cc3)cn2)cc1
Cmax (ICR mouse; oral, 10 mg/kg): 1540 ± 330 ng/mL

CCCCCCCCCCCCCCCC(=O)NCCOCCOCCOCCOCCOCCOCCOCCOCCC(=O)NCCCC[C@H](NC(=O)CNC(=O)[C@@H]1CSSC[C@H](N)C(=O)N[C@@H](Cc2ccc(O)cc2)C(=O)N[C@@H]([C@@H](C)CC)C(=O)N[C@@H](CCC(N)=O)C(=O)N[C@@H](CC(N)=O)C(=O)N1)C(=O)NCC(N)=O
Cmax (male C57BL/6J mouse, plasma; subcutaneous, 20 mg/kg, depot formulation): 0.552 µM
